Experimental data collected from several papers.
Numbered parts are unrelated; each lists some results of a single study.
UniProt P29597, sequence (whole entry, looked up): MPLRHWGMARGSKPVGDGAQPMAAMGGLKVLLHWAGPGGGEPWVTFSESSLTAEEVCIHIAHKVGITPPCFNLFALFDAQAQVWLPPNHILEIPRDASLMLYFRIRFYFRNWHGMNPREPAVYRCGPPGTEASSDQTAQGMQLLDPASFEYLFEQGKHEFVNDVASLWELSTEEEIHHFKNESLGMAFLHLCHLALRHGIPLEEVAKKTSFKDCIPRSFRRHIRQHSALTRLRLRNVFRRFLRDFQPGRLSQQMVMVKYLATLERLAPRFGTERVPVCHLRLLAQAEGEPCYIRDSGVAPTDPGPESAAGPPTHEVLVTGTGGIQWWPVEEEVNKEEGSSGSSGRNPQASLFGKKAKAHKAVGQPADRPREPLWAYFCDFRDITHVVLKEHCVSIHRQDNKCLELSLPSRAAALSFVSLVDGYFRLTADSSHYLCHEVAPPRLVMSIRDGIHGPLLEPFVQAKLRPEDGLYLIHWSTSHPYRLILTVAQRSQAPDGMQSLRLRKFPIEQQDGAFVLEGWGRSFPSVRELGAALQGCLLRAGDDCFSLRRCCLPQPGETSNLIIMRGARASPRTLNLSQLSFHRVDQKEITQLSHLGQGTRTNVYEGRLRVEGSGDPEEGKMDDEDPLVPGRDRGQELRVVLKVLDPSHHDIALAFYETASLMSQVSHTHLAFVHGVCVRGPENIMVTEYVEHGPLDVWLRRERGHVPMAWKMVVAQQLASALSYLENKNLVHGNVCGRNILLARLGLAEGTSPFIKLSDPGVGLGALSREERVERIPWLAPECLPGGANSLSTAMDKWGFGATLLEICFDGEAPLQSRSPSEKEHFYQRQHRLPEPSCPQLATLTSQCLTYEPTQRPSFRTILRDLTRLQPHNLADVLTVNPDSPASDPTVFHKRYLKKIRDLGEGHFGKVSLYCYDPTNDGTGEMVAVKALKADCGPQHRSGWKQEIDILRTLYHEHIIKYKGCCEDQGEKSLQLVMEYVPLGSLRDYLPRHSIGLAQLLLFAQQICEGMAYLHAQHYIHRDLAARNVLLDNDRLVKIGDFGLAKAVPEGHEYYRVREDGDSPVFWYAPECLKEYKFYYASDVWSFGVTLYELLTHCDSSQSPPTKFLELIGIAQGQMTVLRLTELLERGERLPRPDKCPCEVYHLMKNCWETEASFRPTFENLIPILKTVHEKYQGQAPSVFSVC
UniProt P42336, sequence (whole entry, unmodified, looked up): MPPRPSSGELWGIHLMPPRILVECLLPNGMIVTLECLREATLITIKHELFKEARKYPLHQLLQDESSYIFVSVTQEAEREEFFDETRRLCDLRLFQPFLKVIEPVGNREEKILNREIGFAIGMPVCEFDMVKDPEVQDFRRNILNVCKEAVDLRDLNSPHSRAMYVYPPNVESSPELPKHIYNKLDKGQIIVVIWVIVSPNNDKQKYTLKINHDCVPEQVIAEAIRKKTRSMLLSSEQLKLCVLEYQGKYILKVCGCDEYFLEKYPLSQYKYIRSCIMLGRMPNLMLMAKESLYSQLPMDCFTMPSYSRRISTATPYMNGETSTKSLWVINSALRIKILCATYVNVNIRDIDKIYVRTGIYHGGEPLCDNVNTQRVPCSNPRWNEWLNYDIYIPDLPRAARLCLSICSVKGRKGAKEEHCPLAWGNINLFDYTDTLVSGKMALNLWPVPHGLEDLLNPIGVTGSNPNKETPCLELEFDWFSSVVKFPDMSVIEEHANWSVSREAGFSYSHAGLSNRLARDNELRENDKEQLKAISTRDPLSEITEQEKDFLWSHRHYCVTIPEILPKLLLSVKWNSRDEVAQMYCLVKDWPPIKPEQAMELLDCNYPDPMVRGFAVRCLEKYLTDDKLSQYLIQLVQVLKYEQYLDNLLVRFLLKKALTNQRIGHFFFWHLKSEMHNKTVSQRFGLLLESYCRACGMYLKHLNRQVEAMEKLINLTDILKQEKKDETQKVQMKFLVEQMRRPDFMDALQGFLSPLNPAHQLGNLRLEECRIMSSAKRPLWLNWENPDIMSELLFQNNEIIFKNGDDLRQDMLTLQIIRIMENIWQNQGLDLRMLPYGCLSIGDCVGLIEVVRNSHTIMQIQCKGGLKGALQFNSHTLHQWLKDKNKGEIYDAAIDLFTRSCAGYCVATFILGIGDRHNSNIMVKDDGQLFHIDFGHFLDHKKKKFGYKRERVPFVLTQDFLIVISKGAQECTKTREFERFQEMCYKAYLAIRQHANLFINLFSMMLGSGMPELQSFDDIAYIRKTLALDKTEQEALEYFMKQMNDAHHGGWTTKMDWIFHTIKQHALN
UniProt P36896, sequence (whole entry, looked up): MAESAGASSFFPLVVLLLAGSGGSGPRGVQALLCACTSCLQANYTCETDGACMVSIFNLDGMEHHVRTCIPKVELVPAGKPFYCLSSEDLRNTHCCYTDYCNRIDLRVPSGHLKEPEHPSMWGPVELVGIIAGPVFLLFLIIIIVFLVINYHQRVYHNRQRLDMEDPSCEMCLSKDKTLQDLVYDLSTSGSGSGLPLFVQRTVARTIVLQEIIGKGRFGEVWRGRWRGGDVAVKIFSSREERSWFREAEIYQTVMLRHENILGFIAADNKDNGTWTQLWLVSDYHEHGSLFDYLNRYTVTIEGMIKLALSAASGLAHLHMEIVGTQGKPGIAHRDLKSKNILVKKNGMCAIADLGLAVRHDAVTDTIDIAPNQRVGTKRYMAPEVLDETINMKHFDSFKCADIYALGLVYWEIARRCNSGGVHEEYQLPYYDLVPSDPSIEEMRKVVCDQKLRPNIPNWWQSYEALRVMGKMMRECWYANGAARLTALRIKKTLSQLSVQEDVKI
UniProt O94806, sequence (whole entry, looked up): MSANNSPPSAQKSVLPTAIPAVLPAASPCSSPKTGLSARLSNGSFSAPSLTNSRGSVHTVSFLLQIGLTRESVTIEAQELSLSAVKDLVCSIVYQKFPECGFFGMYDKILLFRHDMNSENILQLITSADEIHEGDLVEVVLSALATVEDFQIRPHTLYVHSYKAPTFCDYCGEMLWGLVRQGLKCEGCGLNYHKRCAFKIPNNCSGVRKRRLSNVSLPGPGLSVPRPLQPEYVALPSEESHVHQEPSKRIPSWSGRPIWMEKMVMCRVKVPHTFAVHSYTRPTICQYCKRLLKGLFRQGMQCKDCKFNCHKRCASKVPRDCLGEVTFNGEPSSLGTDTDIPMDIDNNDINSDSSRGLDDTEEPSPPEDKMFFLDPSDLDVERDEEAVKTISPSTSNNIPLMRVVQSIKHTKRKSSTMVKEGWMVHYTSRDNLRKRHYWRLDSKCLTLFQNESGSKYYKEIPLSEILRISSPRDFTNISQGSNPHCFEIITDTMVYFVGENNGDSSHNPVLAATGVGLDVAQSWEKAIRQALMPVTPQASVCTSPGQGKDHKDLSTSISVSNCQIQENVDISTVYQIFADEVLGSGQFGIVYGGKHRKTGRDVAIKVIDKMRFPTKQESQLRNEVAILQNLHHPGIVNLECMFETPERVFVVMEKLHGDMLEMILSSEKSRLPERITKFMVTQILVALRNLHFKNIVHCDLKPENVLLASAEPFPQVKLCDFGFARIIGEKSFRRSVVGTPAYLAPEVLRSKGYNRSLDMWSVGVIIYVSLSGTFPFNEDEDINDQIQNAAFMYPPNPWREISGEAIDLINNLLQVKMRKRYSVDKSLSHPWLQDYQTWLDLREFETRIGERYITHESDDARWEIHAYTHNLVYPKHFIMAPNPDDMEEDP
UniProt Q9H1R3, sequence (whole entry, looked up): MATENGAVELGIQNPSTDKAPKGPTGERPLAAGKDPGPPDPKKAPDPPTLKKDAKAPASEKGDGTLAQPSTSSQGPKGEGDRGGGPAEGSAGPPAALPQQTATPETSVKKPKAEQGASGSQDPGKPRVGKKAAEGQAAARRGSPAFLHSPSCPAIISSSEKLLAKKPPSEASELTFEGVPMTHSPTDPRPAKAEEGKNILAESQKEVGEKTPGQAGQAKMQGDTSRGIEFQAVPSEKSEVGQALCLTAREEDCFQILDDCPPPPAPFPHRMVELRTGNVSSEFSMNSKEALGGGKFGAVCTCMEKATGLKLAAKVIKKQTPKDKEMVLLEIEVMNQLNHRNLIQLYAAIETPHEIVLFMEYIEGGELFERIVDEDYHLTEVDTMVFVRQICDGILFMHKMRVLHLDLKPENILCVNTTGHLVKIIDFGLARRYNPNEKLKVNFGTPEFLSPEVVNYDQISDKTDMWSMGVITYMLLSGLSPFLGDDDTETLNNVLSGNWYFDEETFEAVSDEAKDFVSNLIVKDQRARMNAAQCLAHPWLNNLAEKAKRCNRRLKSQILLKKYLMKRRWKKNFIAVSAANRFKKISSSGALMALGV
UniProt Q14680, sequence (whole entry, looked up): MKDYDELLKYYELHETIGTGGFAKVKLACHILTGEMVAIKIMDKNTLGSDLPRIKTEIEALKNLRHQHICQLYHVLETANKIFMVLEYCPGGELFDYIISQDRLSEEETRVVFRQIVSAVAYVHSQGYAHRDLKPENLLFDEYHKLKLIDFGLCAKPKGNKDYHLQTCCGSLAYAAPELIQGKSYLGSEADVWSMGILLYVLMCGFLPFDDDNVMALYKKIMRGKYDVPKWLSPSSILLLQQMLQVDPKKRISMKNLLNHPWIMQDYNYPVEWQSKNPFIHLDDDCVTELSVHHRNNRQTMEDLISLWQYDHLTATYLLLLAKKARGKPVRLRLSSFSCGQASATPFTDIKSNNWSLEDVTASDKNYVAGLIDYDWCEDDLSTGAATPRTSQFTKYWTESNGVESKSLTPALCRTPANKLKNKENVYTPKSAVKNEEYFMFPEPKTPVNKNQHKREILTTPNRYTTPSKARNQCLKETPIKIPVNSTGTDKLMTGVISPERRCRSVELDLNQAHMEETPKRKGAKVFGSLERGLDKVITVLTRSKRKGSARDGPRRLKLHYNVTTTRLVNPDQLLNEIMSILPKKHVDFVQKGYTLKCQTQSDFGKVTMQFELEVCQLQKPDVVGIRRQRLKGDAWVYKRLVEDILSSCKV

Sample 1 — concentration: 1 µM; measurement: remaining binding
SMILES: O=C(Nc1cccnn1)N1CCC(=Cc2cccc(Oc3ccc(C(F)(F)F)cn3)c2)CC1
PIK3CA (Homo sapiens, UniProt P42336, E542K); cell-free assay, competition with immobilised ligand: 65%
Non-receptor tyrosine-protein kinase TYK2, JH1 (TYK2, Homo sapiens, UniProt P29597); cell-free assay, competition with immobilised ligand: 100%
CSNK1A1L (Homo sapiens, UniProt Q8N752); cell-free assay, competition with immobilised ligand: 76%
AAK1 (Homo sapiens, UniProt Q2M2I8); binding: 74%
MAP2K1 (Homo sapiens, UniProt Q02750); cell-free assay, competition with immobilised ligand: 100%
PIK3CA (Homo sapiens, UniProt P42336, Q546K); cell-free assay, competition with immobilised ligand: 45%
MELK (Homo sapiens, UniProt Q14680); cell-free assay, competition with immobilised ligand: 100%
ACVR1B (Homo sapiens, UniProt P36896); cell-free assay, competition with immobilised ligand: 88%
SBK1 (Homo sapiens, UniProt Q52WX2); cell-free assay, competition with immobilised ligand: 100%
PIK3CA (Homo sapiens, UniProt P42336); binding, competition with immobilised ligand: 45%
BMPR1B (Homo sapiens, UniProt O00238); cell-free assay, competition with immobilised ligand: 88%
PRKD3 (Homo sapiens, UniProt O94806); cell-free assay, competition with immobilised ligand: 83%
MET (Homo sapiens, UniProt P08581, Y1235D); cell-free assay, competition with immobilised ligand: 100%
MYLK2 (Homo sapiens, UniProt Q9H1R3); cell-free assay, competition with immobilised ligand: 88%
BMPR2 (Homo sapiens, UniProt Q13873); cell-free assay, competition with immobilised ligand: 100%
LIM domain kinase 2 (LIMK2, Homo sapiens, UniProt P53671); cell-free assay, competition with immobilised ligand: 88%
PLK1 (Homo sapiens, UniProt P53350); cell-free assay, competition with immobilised ligand: 100%
MAP3K4 (Homo sapiens, UniProt Q9Y6R4); cell-free assay, competition with immobilised ligand: 100%

Sample 2 — cell line: Huh-7; concentration: 10 µM; time: 24 h; measurement: viability
CCCCOC(=O)c1ccc(N)cc1: 97.6%
CC(C(=O)O)c1ccc2c(c1)[nH]c1ccc(Cl)cc12 (centres unmarked): 94.9%
Nc1ncnc2c1ncn2[C@@H]1O[C@H](COP(=O)(O)O)[C@@H](O)[C@H]1O: 99.3%
COC(=O)Nc1nc2ccc(Sc3ccccc3)cc2[nH]1: 88.2%
NS(=O)(=O)c1cc2c(cc1C(F)(F)F)NCNS2(=O)=O: 98%
Cc1c(Nc2ncccc2C(=O)O)cccc1C(F)(F)F: 97.3%
COc1cc([C@@H]2c3cc4c(cc3[C@@H](O[C@@H]3O[C@@H]5CO[C@@H](C)O[C@H]5[C@H](O)[C@H]3O)[C@H]3COC(=O)[C@H]23)OCO4)cc(OC)c1O: 51.9%
O=C(O)c1cn(-c2ccc(F)cc2)c2cc(N3CCNCC3)c(F)cc2c1=O: 92.8%
NC[C@H]1O[C@H](O[C@H]2[C@H](O)[C@@H](O[C@H]3O[C@H](CO)[C@@H](O)[C@H](N)[C@H]3O)[C@H](N)C[C@@H]2N)[C@H](N)[C@@H](O)[C@@H]1O: 97.5%
O=C1OC(c2ccc(O)cc2)(c2ccc(O)cc2)c2ccccc21: 97.3%
CCN(CC)C(C)CN1c2ccccc2Sc2ccccc21 (centres unmarked): 93.5%
Fc1ccc([C@@H]2CCNC[C@H]2COc2ccc3c(c2)OCO3)cc1: 91.6%
COc1ccnc(C[S+]([O-])c2nc3ccc(OC(F)F)cc3[nH]2)c1OC (centres unmarked): 95.4%
C[C@]12CCC(=O)C=C1CC[C@@H]1[C@@H]2C(=O)C[C@@]2(C)[C@H]1CC[C@]2(O)C(=O)CO: 95.2%
COC(=O)C1=C(C)NC(C)=C(C(=O)OCCN(C)Cc2ccccc2)C1c1cccc([N+](=O)[O-])c1 (centres unmarked): 94.8%
O=C(OCc1ccccc1)c1ccccc1: 102%
CC1(C)S[C@@H]2[C@H](N3C(=O)[C@@H](c4ccccc4)NC3(C)C)C(=O)N2[C@H]1C(=O)O: 100%
CC[C@H]1OC(=O)[C@H](C)[C@@H](O[C@H]2C[C@@](C)(OC)[C@@H](O)[C@H](C)O2)[C@H](C)[C@@H](O[C@@H]2O[C@H](C)C[C@H](N(C)C)[C@H]2O)[C@](C)(O)C[C@@H](C)CN(C)[C@H](C)[C@@H](O)[C@]1(C)O: 103%

Sample 3 — organism: Sarcocystis neurona; read-out: parasite growth; concentration: 10 µM; time: 96 h; measurement: inhibition
COC(=O)CCc1ccc(OCC(O)CNC(C)C)cc1 (centres unmarked): -11%
O=C(O)c1cc(/N=N/c2ccc(S(=O)(=O)Nc3ccccn3)cc2)ccc1O: -16.4%
CC[C@H]1OC(=O)[C@H](C)[C@@H](O[C@H]2C[C@@](C)(OC)[C@@H](O)[C@H](C)O2)[C@H](C)[C@@H](O[C@@H]2O[C@H](C)C[C@H](N(C)C)[C@H]2O)[C@](C)(OC)C[C@@H](C)C(=O)[C@H](C)[C@@H](O)[C@]1(C)O: -1.5%
C[C@]12C=CC(=O)C=C1CC[C@@H]1[C@@H]2C(=O)C[C@@]2(C)[C@H]1CC[C@]2(O)C(=O)CO: -18.2%
CC1(C)S[C@@H]2[C@H](NC(=O)COc3ccccc3)C(=O)N2[C@H]1C(=O)O: -0.4%
CC(=O)NCCCCCCNC(C)=O: -8.9%
CCOC(=O)[C@H](CCc1ccccc1)N[C@H]1CCc2ccccc2N(CC(=O)O)C1=O: -14%
CCN(CC)CCNC(=O)c1ccc(N)cc1: -8.6%
O=c1[nH]cnc2c1ncn2[C@H]1CC[C@@H](CO)O1: -12.8%
Cc1cc(NS(=O)(=O)c2ccc(N)cc2)no1: -11.9%
CCCCC(=O)O[C@]1(C(=O)CO)CC[C@H]2[C@@H]3CCC4=CC(=O)CC[C@]4(C)[C@H]3[C@@H](O)C[C@@]21C: -9.6%
Cc1cccc(C)c1NC(=O)C(C)N (centres unmarked): -0.8%

Sample 4 — read-out: enzyme activity; action: inhibitor; concentration: 0.5 µM; reference: control; measurement: remaining activity
Target: Non-receptor tyrosine-protein kinase TYK2 (TYK2, Homo sapiens, UniProt P29597)
COc1ccc(Cl)cc1NC(=O)Nc1cc(C)nc2ccccc12: 99.7%
CCN1/C(=C/C(C)=O)Sc2ccc(OC)cc21: 113%
CC(C)c1nn(-c2c(Cl)cccc2Cl)c2nc(Cc3ccc(OCCO)cc3)[nH]c(=O)c12: 111%
O=C(Nc1ccc(Cl)cc1)c1ccccc1NCc1ccncc1: 92.1%
Cn1cc(/C=C2\C(=O)Nc3ccc(S(N)(=O)=O)cc32)c2ccccc21: 35%
Nc1[nH]nc2nnc(-c3c(-c4ccccc4)nn4ccccc34)cc12: 104%
CN(C)CCCn1cc(C2=C(c3c[nH]c4ccccc34)C(=O)NC2=O)c2ccccc21: 79.3%
Cc1ccc(NC(=O)c2ccc(CN3CCN(C)CC3)cc2)cc1Nc1nccc(-c2cccnc2)n1: 99.9%
C[S+]([O-])c1ccc(-c2nc(-c3ccncc3)c(-c3ccc(F)cc3)[nH]2)cc1 (centres unmarked): 102%
COc1cc2ncnc(Nc3ccc(OCc4ccccc4)cc3)c2cc1OC: 103%
COc1cc2ncnc(N3CCN(C(=O)Nc4ccc(Oc5ccccc5)cc4)CC3)c2cc1OC: 83.1%

Repeated from above (sample 4):
CCN1/C(=C/C(C)=O)Sc2ccc(OC)cc21: 113%
CC(C)c1nn(-c2c(Cl)cccc2Cl)c2nc(Cc3ccc(OCCO)cc3)[nH]c(=O)c12: 111%
O=C(Nc1ccc(Cl)cc1)c1ccccc1NCc1ccncc1: 92.1%
Cn1cc(/C=C2\C(=O)Nc3ccc(S(N)(=O)=O)cc32)c2ccccc21: 35%
Nc1[nH]nc2nnc(-c3c(-c4ccccc4)nn4ccccc34)cc12: 104%
CN(C)CCCn1cc(C2=C(c3c[nH]c4ccccc34)C(=O)NC2=O)c2ccccc21: 79.3%
